Assay results collected from several papers.
Lines come from different studies, so protocols differ.
Organism: Staphylococcus aureus

Compound	test	system	conditions	MIC
CC(C)C[C@H](NC(=O)[C@H](CCCCN)NC(=O)C1CCCC=CCCC(NC(=O)[C@H](CCCCN)NC(=O)[C@@H](N)CC(C)C)C(=O)N[C@@H](CCCCN)C(=O)NC2CCC=CCCCC(NC(=O)[C@H](CCCCN)NC(=O)CNC(=O)[C@H]3CCCN3C(=O)[C@H](CCCCN)NC2=O)C(=O)N[C@@H](CCCCN)C(=O)N1)C(N)=O (stereo partly drawn)	broth microdilution	ATCC 29737, Mueller-Hinton broth	18 h, 37 °C	128 µM
CC[C@H](C)[C@H](NC(=O)[C@@H](CCCNC(=N)N)NC(=O)[C@H](CCCNC(=N)N)NC(=O)[C@@H](NC(=O)[C@H](Cc1c[nH]c2ccccc12)NC(=O)[C@H](CCCNC(=N)N)NC(=O)[C@@H]1CCCN1C(=O)[C@H](CCCNC(=N)N)NC(=O)[C@@H]1CCCN1C(=O)[C@H](CC(C)C)NC(=O)[C@H](Cc1ccc(O)cc1)NC(=O)[C@@H]1CCCN1C(=O)[C@@H]1CCCN1C(=O)[C@H](CCCCN)NC(=O)[C@H](CC(=O)O)NC(=O)[C@@H](N)C(C)C)[C@@H](C)O)C(=O)N[C@@H](Cc1ccc(O)cc1)C(=O)N[C@@H](CC(N)=O)C(=O)N[C@H](CCCNC(=N)N)C(N)=O	broth microdilution	DSM 6247	18 h, 37 °C, 25% MHB2	64 µg/mL
CC[C@H](C)[C@H](NC(=O)[C@H](CCCNC(=N)N)NC(=O)[C@H](CCC(N)=O)NC(=O)[C@@H](NC(=O)[C@@H](NC(=O)[C@H](CCCNC(=N)N)NC(=O)[C@H](CCCCN)NC(=O)[C@H](Cc1ccccc1)NC(=O)CN)[C@@H](C)CC)C(C)C)C(=O)N[C@@H](CCCCN)C(=O)N[C@@H](CC(=O)O)C(=O)N[C@@H](Cc1ccccc1)C(=O)N[C@@H](CC(C)C)C(=O)N[C@@H](CCCNC(=N)N)C(=O)N[C@@H](CC(N)=O)C(=O)N[C@@H](CC(C)C)C(=O)N[C@H](C(N)=O)C(C)C	–	USA300 LAC	–	2.5 µM
CC(=CC(C)CCCCC(=O)O)C1OC2C=CC1OC(=O)C=CC=CC=CC1OC3CC1OC(C=CCC1OC(CC(O)C1C)C(O)C(O)C=CCCC=CC2)C3C (stereo not drawn)	–	RKI 11-02670	–	0.15 µM
C=C1NC(=O)C2C[S+]([O-])CC3NC(=O)C(CSC(C)C(NC(=S)C(Cc4cnc[nH]4)NC(=O)c4csc(C(C)NC(C)=O)n4)C(=O)N[C@H](CC(C)C(=O)NC(=O)CC(C(=O)O)NC(=O)C(C)NC3=O)C(=O)N2)NC(=O)[C@@H]2CCCN2C(=O)[C@@H](CC(C)C)NC1=O (stereo partly drawn)	bacterial growth	NCTC 8325	–	> 32 µg/mL
CC[C@H](C)[C@@H]1NC(=O)[C@H](CO)NC(=O)C(C)(CCCCN)NC(=O)[C@@H]2CSSC[C@@H](C(=O)N[C@@H](Cc3ccc(O)cc3)C(N)=O)NC(=O)[C@H](CCCCN)NC(=O)[C@@H]3CSSC[C@H](NC(=O)[C@H](CCCNC(=N)N)NC(=O)C(C)(CC(C)C)NC(=O)[C@H](CC(=O)O)NC(=O)[C@H](CC(=O)O)NC(=O)[C@H](CCC(=O)O)NC(=O)[C@H](CC(N)=O)NC(=O)[C@H](Cc4c[nH]c5ccccc45)NC(=O)[C@@H]4CCCN4C(=O)CNC(=O)[C@H](CC(N)=O)NC(=O)[C@@H](NC(=O)CNC(=O)[C@H](Cc4ccccc4)NC(=O)CN)CSSC[C@H](NC(=O)[C@H](Cc4ccc(O)cc4)NC(=O)CNC(=O)CNC(=O)[C@H](CCCCN)NC(=O)[C@H](Cc4ccc(O)cc4)NC(=O)CNC(=O)[C@H](CCCCN)NC1=O)C(=O)N[C@@H](C)C(=O)N[C@@H](CCCCN)C(=O)NCC(=O)NCC(=O)N[C@@H](Cc1ccccc1)C(=O)N[C@@H](C(C)C)C(=O)N3)C(=O)N[C@@H](Cc1c[nH]cn1)C(=O)NC(C)(C)C(=O)N[C@@H](Cc1c[nH]cn1)C(=O)N2 (stereo partly drawn)	–	473, methicillin-resistant mecA, cation-adjusted Mueller Hinton broth	18 h, 37 °C	0.5 µM
CC(C)[C@H](NC(=O)CNC(=O)CNC(=O)[C@H](Cc1ccc(O)cc1)NC(=O)[C@H](CS)NC(=O)[C@@H](NC(=O)[C@H](Cc1c[nH]c2ccccc12)NC(=O)[C@H](Cc1ccccc1)NC(=O)[C@H](CS)NC(=O)[C@H](Cc1c[nH]c2ccccc12)NC(=O)[C@@H](N)CCCNC(=N)N)C(C)C)C(=O)N[C@@H](CS)C(=O)N[C@@H](Cc1ccc(O)cc1)C(=O)N[C@@H](CCCNC(=N)N)C(=O)N[C@@H](CCCNC(=N)N)C(=O)N[C@@H](CS)C(=O)N[C@@H](CCCNC(=N)N)C(=O)O	broth microdilution	ATCC 25923	–	0.64 log10 µg/mL
Oc1c(Br)cc(Br)c2nc3cc(F)c(F)cc3nc12	broth microdilution	MRSA BAA-44	–	0.39 µM
CN[C@H](CC(C)C)C(=O)N[C@H]1C(=O)N[C@@H](CC(N)=O)C(=O)N[C@H]2C(=O)N[C@H]3C(=O)N[C@H](C(=O)N[C@H](C(=O)NCC(N)=O)c4cc(O)cc(O)c4-c4cc3ccc4O)[C@H](O)c3ccc(c(Cl)c3)Oc3cc2cc(c3O[C@@H]2O[C@H](CO)[C@@H](O)[C@H](O)[C@H]2O[C@H]2C[C@](C)(NCc3ccc(OCc4cn(CC(=O)N[C@H](C(=O)N[C@@H](CCN)C(=O)N[C@H]5CCNC(=O)[C@H]([C@@H](C)O)NC(=O)[C@H](CCN)NC(=O)[C@H](CCN)NC(=O)[C@H](CC(C)C)NC(=O)[C@@H](CC(C)C)NC(=O)[C@H](CCN)NC5=O)[C@@H](C)O)nn4)c(OC)c3)[C@H](O)[C@H](C)O2)Oc2ccc(cc2Cl)[C@H]1O	–	VRSA 2 vanA	–	> 48 µM
N=C(N)NCCC[C@@H]1NC(=O)[C@H](CCCNC(=N)N)NC(=O)[C@@H](C(c2ccccc2)c2ccccc2)NC(=O)[C@H](Cc2c[nH]c3ccccc23)NC(=O)[C@@H](C(c2ccccc2)c2ccccc2)NC(=O)[C@@H](CCCNC(=N)N)NC(=O)[C@@H](CCCNC(=N)N)NC1=O	–	1195201, multidrug-resistant	–	4 µg/mL
c1ccc(CN2CCOCCOCCN(CCCCCCCCN3CCOCCOCCN(CCCCCCCCN4CCOCCOCCN(Cc5ccccc5)CCOCCOCC4)CCOCCOCC3)CCOCCOCC2)cc1	–	1199B (NorA overexpressing)	–	128 µM
CC[C@H](C)[C@H](NC(=O)[C@@H](CCCNC(=N)N)NC(=O)[C@H](CCCNC(=N)N)NC(=O)CNC(=O)[C@H](Cc1c[nH]c2ccccc12)NC(=O)[C@H](CCCNC(=N)N)NC(=O)[C@@H]1CCCN1C(=O)[C@H](CCCNC(=N)N)NC(=O)[C@@H]1CCCN1C(=O)[C@H](CC(C)C)NC(=O)[C@H](Cc1ccc(O)cc1)NC(=O)[C@@H]1CCCN1C(=O)[C@@H]1CCCN1C(=O)[C@H](CCCCN)NC(=O)[C@H](CC(=O)O)NC(=O)[C@@H](N)C(C)C)C(=O)N[C@@H](Cc1ccc(O)cc1)C(=O)N[C@@H](CC(N)=O)C(=O)N[C@H](CCCNC(=N)N)C(N)=O	broth microdilution	DSM 6247	18 h, 37 °C, 25% MHB2	32 µg/mL
C#CCOc1ccc(CN[C@@]2(C)C[C@H](O[C@H]3[C@H](Oc4c5cc6cc4Oc4ccc(cc4Cl)[C@@H](O)[C@@H](NC(=O)[C@@H](CC(C)C)NC)C(=O)N[C@@H](CC(N)=O)C(=O)N[C@H]6C(=O)N[C@H]4C(=O)N[C@H](C(=O)N[C@H](C(=O)NCC(N)=O)c6cc(O)cc(O)c6-c6cc4ccc6O)[C@H](O)c4ccc(c(Cl)c4)O5)O[C@H](CO)[C@@H](O)[C@@H]3O)O[C@@H](C)[C@H]2O)cc1OC	broth microdilution	VISA LIM-2, tryptic soy broth	20 to 24 h, 37 °C, 0.002% polysorbate 80	4 µg/mL
CC(C)C[C@@H]1NC(=O)[C@H](CCCCN)NC(=O)CSC[C@@H](C(=O)N[C@@H](CCCCN)C(N)=O)NC(=O)[C@H](CC(C)C)NC(=O)[C@H](CC(C)C)NC(=O)[C@H](CC(C)C)NC(=O)[C@@H]2CSCC(=O)N[C@@H](CCCCN)C(=O)N[C@@H](CC(C)C)C(=O)N[C@@H](CCCCN)C(=O)N[C@@H](CCCCNC(=O)[C@H](CCCCN)NC1=O)C(=O)N[C@@H](CCCCN)C(=O)N[C@@H](CC(C)C)C(=O)N[C@@H](CC(C)C)C(=O)N2	broth microdilution	MRSA clinical isolate	–	> 128 µg/mL
CN[C@H](CC(C)C)C(=O)N[C@H]1C(=O)N[C@@H](CC(N)=O)C(=O)N[C@H]2C(=O)N[C@H]3C(=O)N[C@H](C(=O)N[C@H](C(=O)NCc4cn(CC(=O)N[C@H](C(=O)N[C@@H](CCN)C(=O)N[C@H]5CCNC(=O)[C@H]([C@@H](C)O)NC(=O)[C@H](CCN)NC(=O)[C@H](CCN)NC(=O)[C@H](CC(C)C)NC(=O)[C@@H](CC(C)C)NC(=O)[C@H](CCN)NC5=O)[C@@H](C)O)nn4)c4cc(O)cc(O)c4-c4cc3ccc4O)[C@H](O)c3ccc(c(Cl)c3)Oc3cc2cc(c3O[C@@H]2O[C@H](CO)[C@@H](O)[C@H](O)[C@H]2O[C@H]2C[C@](C)(N)[C@H](O)[C@H](C)O2)Oc2ccc(cc2Cl)[C@H]1O	–	MSSA ATCC 29213	–	0.1 µM
CCCCCCCC[C@H](NC(=O)[C@@H]1CSC([C@@H](N)[C@@H](C)CC)=N1)C(=O)N[C@H](CCC(=O)O)C(=O)N[C@H](C(=O)N[C@H]1CCCCNC(=O)[C@H](CC(N)=O)NC(=O)[C@@H](CC(=O)O)NC(=O)[C@H](Cc2c[nH]cn2)NC(=O)[C@@H](Cc2ccccc2)NC(=O)[C@H]([C@@H](C)CC)NC(=O)[C@@H](CCCN)NC1=O)[C@@H](C)CC	broth microdilution	USA300 MRSA, LB medium	no added Zn2+	1 µg/mL
CN[C@H](CC(C)C)C(=O)N[C@H]1C(=O)N[C@@H](CC(N)=O)C(=O)N[C@H]2C(=O)N[C@H]3C(=O)N[C@H](C(=O)N[C@H](C(=O)NCc4cn(CCCCC(=O)N[C@H](C(=O)N[C@@H](CCN)C(=O)N[C@H]5CCNC(=O)[C@H]([C@@H](C)O)NC(=O)[C@H](CCN)NC(=O)[C@H](CCN)NC(=O)[C@H](CC(C)C)NC(=O)[C@@H](CC(C)C)NC(=O)[C@H](CCN)NC5=O)[C@@H](C)O)nn4)c4cc(O)cc(O)c4-c4cc3ccc4O)[C@H](O)c3ccc(c(Cl)c3)Oc3cc2cc(c3O[C@@H]2O[C@H](CO)[C@@H](O)[C@H](O)[C@H]2O[C@H]2C[C@](C)(N)[C@H](O)[C@H](C)O2)Oc2ccc(cc2Cl)[C@H]1O	broth microdilution	VISA LIM-2, tryptic soy broth	20 to 24 h, 37 °C, 0.002% polysorbate 80	2 µg/mL
c1ccc(CCNC2CCCc3c2[nH]c2ccc(C4CCCCC4)cc32)cc1 (stereo not drawn)	microbial growth, broth dilution	VISA	–	4 µg/mL
